# Measured values pooled from the literature.
# Each line is one published result; not all experiments were run side by side. Several values in a cell are separate wells, animals, samples, runs or records. ± marks the error that the study gave.
Molecule,test,test system,setting,measurement,result
CC(C)C[C@H](NC(=O)[C@@H](CCCCNC(=O)[C@@H](Cc1ccccc1)NC(=O)CCCCCNC(=O)CN1CCN(CC(=O)O)CCN(CC(=O)O)CCN(CC(=O)O)CC1)NC(=O)[C@H](Cc1ccc(O)cc1)NC(=O)[C@H](CO)NC(=O)[C@H](Cc1c[nH]c2ccccc12)NC(=O)[C@H](Cc1c[nH]cn1)NC(=O)[C@@H]1CCC(=O)N1)C(=O)N[C@@H](CCCNC(=N)N)C(=O)N1CCC[C@H]1C(=O)NCC(N)=O [indium-111 labelled],,"athymic nude mouse, female, pituitary","intravenous, 0.037 MBq, 4 h",tissue uptake,24.3 ± 8.32 %ID/g
CCCC[C@H](NC(=O)COCCOCCNC(=O)CN1CCN(CC(=O)O)CCN(CC(=O)O)CC1)C(=O)N[C@H]1CC(=O)NCCCC[C@@H](C(N)=O)NC(=O)[C@H](Cc2c[nH]c3ccccc23)NC(=O)[C@H](CCCNC(=N)N)NC(=O)[C@@H](Cc2ccccc2)NC(=O)[C@H](Cc2c[nH]cn2)NC1=O [technetium-99m labelled],,"C57 mouse, kidneys","intravenous, 0.037 MBq, 4 h",tissue uptake,0.73 ± 0.14 %ID/g
CC(C)C[C@H](NC(=O)[C@@H](CCCCNC(=O)CCCCCCCCCCNC(=O)CN1CCN(CC(=O)O)CCN(CC(=O)O)CCN(CC(=O)O)CC1)NC(=O)[C@H](Cc1ccc(O)cc1)NC(=O)[C@H](CO)NC(=O)[C@H](Cc1c[nH]c2ccccc12)NC(=O)[C@H](Cc1cnc[nH]1)NC(=O)[C@@H]1CCC(=O)N1)C(=O)N[C@@H](CCCN=C(N)N)C(=O)N1CCC[C@H]1C(=O)NCC(N)=O [indium-111 labelled],,"athymic nude mouse, female, intestines","intravenous, 0.037 MBq, 1 h",tissue uptake,1.49 ± 0.32 %ID
C=C1CC[C@H](OCCCNC(=O)CCOCCOCCOCCOCCOCCOCCOCCOCCOCCOCCOCCOCCOCCOCCOCCOCCOCCOCCOCCOCCOCCOCCOCCOCCOCCOCCOCCOCCOCCOCCOCCOCCOCCOCCOCCOCCNC(=O)CCN2C(=O)CC(SC[C@H](NC(=O)[C@H](Cc3ccccc3)NC(=O)[C@H](CC(N)=O)NC(=O)[C@H](Cc3c[nH]cn3)NC(=O)[C@@H](NC(=O)[C@H](CC(=O)O)NC(=O)[C@H](CCC(N)=O)NC(=O)[C@H](CC(C)C)NC(=O)[C@H](CCCCN)NC(=O)[C@H](CCCCN)NC(=O)[C@H](CCCNC(=N)N)NC(=O)[C@H](CC(C)C)NC(=O)[C@H](Cc3c[nH]c4ccccc34)NC(=O)[C@H](CCC(=O)O)NC(=O)[C@@H](NC(=O)[C@H](CCCNC(=N)N)NC(=O)[C@H](CCC(=O)O)NC(=O)[C@H](CCSC)NC(=O)[C@H](CO)NC(=O)[C@H](CC(N)=O)NC(=O)[C@H](CC(C)C)NC(=O)[C@H](Cc3c[nH]cn3)NC(=O)[C@H](CCCCN)NC(=O)CNC(=O)[C@H](CC(C)C)NC(=O)[C@H](CC(N)=O)NC(=O)[C@H](Cc3c[nH]cn3)NC(=O)[C@H](CCSC)NC(=O)[C@H](CC(C)C)NC(=O)[C@H](CCC(N)=O)NC(=O)[C@@H](NC(=O)[C@H](CCC(=O)O)NC(=O)[C@H](CO)NC(=O)[C@@H](NC(=O)[C@@H](N)CO)C(C)C)[C@@H](C)CC)C(C)C)C(C)C)C(=O)O)C2=O)C/C1=C/C=C1\CCC[C@]2(C)[C@@H]([C@H](C)CCCC(C)(C)O)CC[C@@H]12 (some centres unmarked),,"male cynomolgus monkey, plasma","intravenous, 0.02 mg/kg, single dose",Cmax,789 ng/mL
CC(C)C[C@H](NC(=O)[C@H](Cc1ccc(O)cc1)NC(=O)[C@@H](CCCNC(=N)N)NC(=O)[C@@H](CO)NC(=O)[C@H](Cc1ccccc1)NC(=O)[C@H](CC1CCCCC1)NC(=O)[C@H](CC(=O)O)NC(=O)CN1CCN(CC(=O)O)CCN(CC(=O)O)CCN(CC(=O)O)CC1)C(=O)N[C@@H](Cc1c[nH]c2ccccc12)C(=O)N[C@@H](CO)C(=O)O [copper-64 labelled],,"human, urinary bladder","concentration not given, 24 h",activity concentration,231 Bq/mL and 316 Bq/mL and 34.5 Bq/mL and 198 Bq/mL and 55.5 Bq/mL and 45.1 Bq/mL
CC(C)C[C@@H](NC(=O)[C@@H](CC(C)C)NC(=O)[C@@H](CC(=O)O)NC(=O)[C@@H](CC(C)C)NC(=O)[C@@H](CC(C)C)NC(=O)[C@@H](CC(C)C)NC(=O)[C@H](NC(=O)[C@@H](CC(=O)O)NC(=O)[C@H](NC(=O)[C@H]1CCCN1C(=O)[C@@H](Cc1ccccc1)NC(=O)[C@@H](CC(C)C)NC(=O)[C@@H](CC(C)C)NC(=O)[C@@H](CC(=O)O)NC(=O)[C@@H](CC(C)C)NC(=O)[C@@H](Cc1ccc(O)cc1)NC(=O)[C@@H](C)NC(=O)[C@@H](CCCNC(=N)N)NC(=O)[C@@H](Cc1c[nH]c2ccccc12)NC(=O)[C@H]1CCCN1C(=O)[C@@H](CC(N)=O)NC(=O)[C@@H](CCC(N)=O)NC(=O)[C@@H](CC(=O)O)NC(=O)[C@@H](CC(=O)O)NC(=O)[C@@H](CSC1CC(=O)N(CCNC(=O)CN2CCN(CC(=O)O)CCN(CC(=O)O)CC2)C1=O)NC(=O)[C@@H](C)N)[C@H](C)O)[C@H](C)O)C(=O)N[C@H](Cc1c[nH]c2ccccc12)C(=O)O (some centres unmarked) [fluorine-18 labelled],,"male nude mice, PC-3 xenograft, tumor","intravenous, 4 h",tissue uptake,4.02 %ID/g
nucleophosmin T78E,"far-UV CD, CDSSTR","Tris buffer, NaCl","pH 7.5, room temperature",beta-strand content,14%
CCCC[C@H](NC(=O)CCCCCCCNC(=O)CN1CCN(CC(=O)O)CCN(CC(=O)O)CC1)C(=O)N[C@H]1CC(=O)NCCCC[C@@H](C(N)=O)NC(=O)[C@H](Cc2c[nH]c3ccccc23)NC(=O)[C@H](CCCNC(=N)N)NC(=O)[C@@H](Cc2ccccc2)NC(=O)[C@H](Cc2c[nH]cn2)NC1=O [technetium-99m labelled],,"C57 mouse, stomach","intravenous, 0.037 MBq, 2 h",tissue uptake,0.95 ± 0.5 %ID/g

# Some of these lines once more:
Molecule,test,test system,setting,measurement,result
CCCC[C@H](NC(=O)COCCOCCNC(=O)CN1CCN(CC(=O)O)CCN(CC(=O)O)CC1)C(=O)N[C@H]1CC(=O)NCCCC[C@@H](C(N)=O)NC(=O)[C@H](Cc2c[nH]c3ccccc23)NC(=O)[C@H](CCCNC(=N)N)NC(=O)[C@@H](Cc2ccccc2)NC(=O)[C@H](Cc2c[nH]cn2)NC1=O [technetium-99m labelled],,"C57 mouse, kidneys","intravenous, 0.037 MBq, 4 h",tissue uptake,0.73 ± 0.14 %ID/g
